Published values of several laboratories.
A part holds a random share of what one study measured. Values joined by “and” are separate records of one study, mostly repeats; a detail may differ.
UniProt Q06418, sequence (whole entry, looked up): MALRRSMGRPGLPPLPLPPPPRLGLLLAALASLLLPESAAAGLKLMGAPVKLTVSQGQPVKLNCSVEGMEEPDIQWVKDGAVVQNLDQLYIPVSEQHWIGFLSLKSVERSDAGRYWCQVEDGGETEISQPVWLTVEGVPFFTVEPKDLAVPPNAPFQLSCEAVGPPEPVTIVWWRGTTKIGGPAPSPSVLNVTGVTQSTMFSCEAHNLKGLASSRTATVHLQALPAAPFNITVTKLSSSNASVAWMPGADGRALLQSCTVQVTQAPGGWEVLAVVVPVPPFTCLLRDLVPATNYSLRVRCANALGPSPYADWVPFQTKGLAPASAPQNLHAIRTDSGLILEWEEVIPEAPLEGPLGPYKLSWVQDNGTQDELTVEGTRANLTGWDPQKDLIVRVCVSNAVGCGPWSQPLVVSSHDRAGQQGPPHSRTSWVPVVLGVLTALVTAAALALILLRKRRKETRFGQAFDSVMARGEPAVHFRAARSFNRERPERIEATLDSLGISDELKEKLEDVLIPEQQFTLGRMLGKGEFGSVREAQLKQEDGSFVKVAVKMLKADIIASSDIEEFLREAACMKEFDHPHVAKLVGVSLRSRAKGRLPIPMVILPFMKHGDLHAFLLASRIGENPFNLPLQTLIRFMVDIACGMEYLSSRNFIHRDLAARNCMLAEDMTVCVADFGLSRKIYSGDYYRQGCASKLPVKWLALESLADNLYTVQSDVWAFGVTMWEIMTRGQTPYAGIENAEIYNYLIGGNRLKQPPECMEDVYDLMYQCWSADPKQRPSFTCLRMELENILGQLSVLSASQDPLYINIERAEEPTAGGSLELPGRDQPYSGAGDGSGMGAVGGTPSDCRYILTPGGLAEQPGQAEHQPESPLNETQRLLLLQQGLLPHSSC
UniProt Q96SB4, sequence (whole entry, looked up): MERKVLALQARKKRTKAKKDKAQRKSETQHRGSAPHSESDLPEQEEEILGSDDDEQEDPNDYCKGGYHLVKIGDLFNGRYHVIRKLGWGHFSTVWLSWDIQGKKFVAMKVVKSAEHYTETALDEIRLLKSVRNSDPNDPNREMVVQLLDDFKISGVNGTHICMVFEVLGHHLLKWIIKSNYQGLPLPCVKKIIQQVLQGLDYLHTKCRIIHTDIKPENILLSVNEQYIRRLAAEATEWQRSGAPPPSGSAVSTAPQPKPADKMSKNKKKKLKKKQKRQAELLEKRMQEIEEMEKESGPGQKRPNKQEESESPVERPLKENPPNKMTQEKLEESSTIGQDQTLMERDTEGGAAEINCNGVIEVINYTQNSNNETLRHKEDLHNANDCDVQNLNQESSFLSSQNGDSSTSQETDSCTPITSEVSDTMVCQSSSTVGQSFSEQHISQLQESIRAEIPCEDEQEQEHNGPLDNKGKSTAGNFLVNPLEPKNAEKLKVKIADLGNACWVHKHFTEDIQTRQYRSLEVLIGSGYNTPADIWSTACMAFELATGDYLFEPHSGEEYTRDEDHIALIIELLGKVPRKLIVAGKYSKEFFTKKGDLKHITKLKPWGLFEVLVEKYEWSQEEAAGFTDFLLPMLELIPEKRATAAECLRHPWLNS
UniProt Q04759, sequence (whole entry, looked up): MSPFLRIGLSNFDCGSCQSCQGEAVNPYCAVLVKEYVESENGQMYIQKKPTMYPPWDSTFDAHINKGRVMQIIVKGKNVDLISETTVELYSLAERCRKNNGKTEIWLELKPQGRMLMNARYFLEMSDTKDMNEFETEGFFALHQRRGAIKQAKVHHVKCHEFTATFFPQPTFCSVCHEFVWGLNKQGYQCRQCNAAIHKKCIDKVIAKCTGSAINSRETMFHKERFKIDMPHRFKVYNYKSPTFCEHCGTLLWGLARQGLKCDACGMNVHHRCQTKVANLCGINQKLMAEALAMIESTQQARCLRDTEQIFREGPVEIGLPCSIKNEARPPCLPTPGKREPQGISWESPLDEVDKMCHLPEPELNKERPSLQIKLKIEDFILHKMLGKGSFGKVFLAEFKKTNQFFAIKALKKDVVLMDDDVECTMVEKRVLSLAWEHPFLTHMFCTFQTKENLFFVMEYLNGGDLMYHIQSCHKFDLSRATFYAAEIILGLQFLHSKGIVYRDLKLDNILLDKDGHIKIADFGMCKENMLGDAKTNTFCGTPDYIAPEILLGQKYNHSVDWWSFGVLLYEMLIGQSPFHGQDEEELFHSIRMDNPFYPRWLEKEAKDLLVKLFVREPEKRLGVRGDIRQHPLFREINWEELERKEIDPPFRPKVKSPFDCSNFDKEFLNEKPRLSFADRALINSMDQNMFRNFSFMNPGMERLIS
UniProt P49760, sequence (whole entry, looked up): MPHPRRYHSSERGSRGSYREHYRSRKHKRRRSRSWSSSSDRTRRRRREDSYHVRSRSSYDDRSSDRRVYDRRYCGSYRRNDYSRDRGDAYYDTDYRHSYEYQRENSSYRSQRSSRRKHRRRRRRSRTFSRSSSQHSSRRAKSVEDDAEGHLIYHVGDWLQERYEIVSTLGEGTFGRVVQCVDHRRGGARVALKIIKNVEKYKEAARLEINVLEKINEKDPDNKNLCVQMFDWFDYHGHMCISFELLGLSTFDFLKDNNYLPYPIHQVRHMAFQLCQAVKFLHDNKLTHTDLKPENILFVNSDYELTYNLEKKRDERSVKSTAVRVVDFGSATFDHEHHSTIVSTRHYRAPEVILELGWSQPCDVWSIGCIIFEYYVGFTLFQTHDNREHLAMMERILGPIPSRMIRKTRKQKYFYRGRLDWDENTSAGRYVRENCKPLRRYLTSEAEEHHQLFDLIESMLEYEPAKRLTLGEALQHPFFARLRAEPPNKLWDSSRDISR
UniProt Q9HBY8, sequence (whole entry, looked up): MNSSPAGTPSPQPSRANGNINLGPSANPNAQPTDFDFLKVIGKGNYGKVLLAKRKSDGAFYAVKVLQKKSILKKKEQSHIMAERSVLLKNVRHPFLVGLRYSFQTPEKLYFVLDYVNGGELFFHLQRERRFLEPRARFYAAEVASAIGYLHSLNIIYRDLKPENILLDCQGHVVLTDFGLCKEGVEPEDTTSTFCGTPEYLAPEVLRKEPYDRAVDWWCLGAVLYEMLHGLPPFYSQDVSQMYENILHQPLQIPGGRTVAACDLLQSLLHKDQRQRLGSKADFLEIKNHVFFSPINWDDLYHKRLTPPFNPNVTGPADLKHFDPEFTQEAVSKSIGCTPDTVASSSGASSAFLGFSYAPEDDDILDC
UniProt Q14012, sequence (whole entry, looked up): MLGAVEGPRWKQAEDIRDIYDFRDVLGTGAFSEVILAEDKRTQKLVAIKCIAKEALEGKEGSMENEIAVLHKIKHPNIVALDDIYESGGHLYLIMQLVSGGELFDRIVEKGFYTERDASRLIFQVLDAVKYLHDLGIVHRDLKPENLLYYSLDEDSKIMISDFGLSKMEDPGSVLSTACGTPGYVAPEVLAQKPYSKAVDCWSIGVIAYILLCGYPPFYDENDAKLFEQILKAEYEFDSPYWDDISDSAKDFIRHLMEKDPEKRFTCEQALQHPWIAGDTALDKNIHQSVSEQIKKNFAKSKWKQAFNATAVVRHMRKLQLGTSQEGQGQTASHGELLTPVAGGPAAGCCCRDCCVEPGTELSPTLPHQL
UniProt O15146, sequence (whole entry, looked up): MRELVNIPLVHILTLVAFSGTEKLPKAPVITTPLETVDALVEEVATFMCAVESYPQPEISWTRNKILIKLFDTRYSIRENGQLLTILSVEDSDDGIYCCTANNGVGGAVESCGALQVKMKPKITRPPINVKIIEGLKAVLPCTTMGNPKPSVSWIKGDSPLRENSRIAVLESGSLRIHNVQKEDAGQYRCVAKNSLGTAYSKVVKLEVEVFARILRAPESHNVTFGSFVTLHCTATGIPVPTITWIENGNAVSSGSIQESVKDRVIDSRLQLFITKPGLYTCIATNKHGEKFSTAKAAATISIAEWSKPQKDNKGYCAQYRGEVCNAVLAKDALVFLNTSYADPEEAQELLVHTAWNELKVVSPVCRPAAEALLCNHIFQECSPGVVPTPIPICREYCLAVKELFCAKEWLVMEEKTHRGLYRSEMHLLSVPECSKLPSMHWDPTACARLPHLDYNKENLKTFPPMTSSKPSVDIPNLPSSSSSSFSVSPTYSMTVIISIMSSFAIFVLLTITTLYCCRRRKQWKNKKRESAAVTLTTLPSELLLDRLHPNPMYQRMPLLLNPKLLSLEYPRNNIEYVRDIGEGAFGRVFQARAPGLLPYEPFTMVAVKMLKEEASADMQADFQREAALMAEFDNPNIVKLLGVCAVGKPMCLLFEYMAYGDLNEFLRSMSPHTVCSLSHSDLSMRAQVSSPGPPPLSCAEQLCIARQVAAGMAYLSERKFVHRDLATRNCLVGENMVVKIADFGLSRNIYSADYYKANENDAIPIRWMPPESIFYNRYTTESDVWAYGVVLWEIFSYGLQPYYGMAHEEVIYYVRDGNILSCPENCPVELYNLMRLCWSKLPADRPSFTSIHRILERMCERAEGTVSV
UniProt P42680, sequence (whole entry, looked up): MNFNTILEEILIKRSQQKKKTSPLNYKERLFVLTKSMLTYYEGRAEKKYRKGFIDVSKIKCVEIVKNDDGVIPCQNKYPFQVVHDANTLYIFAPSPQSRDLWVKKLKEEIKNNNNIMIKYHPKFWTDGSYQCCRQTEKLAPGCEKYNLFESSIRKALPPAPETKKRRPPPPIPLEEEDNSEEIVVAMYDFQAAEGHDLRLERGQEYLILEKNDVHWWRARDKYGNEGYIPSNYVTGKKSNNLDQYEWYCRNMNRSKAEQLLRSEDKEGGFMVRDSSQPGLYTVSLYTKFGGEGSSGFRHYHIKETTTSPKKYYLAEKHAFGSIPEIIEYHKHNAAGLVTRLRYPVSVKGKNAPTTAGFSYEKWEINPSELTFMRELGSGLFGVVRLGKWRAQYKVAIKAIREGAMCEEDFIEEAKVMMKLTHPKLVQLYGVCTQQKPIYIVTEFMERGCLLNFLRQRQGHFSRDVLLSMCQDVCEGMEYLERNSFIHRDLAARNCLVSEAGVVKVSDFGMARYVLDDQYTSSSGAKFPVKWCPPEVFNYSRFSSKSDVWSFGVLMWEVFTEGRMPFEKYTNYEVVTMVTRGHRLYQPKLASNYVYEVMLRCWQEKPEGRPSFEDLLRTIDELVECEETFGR

Block 1
SMILES: O=C1NC(=O)c2c1c1c3ccccc3n3c1c1c2c2ccccc2n1[C@H]1CC[C@@H]3O1
Effect on: enzyme activity
Action: inhibitor
Tested at: 0.5 µM
Relative to: control
Cyclin-dependent kinase 2, with cyclin E (CDK2, Homo sapiens, UniProt P24941) — remaining activity: 28.5%.
The remaining activity was 88.1% (SRSF protein kinase 1 (SRPK1, Homo sapiens, UniProt Q96SB4)).
The remaining activity was 93.8% (Casein kinase I isoform delta (CSNK1D, Homo sapiens, UniProt P48730)).
For Ephrin type-A receptor 2 (EPHA2, Homo sapiens, UniProt P29317): remaining activity read 91.3%.
The remaining activity was 2.35% (Ribosomal protein S6 kinase alpha-3 (RPS6KA3, Homo sapiens, UniProt P51812)).
For Serine/threonine-protein kinase SIK2 (SIK2, Homo sapiens, UniProt Q9H0K1): remaining activity read 33.9%.
For Tyrosine-protein kinase JAK1 (JAK1, Homo sapiens, UniProt P23458): remaining activity read 22.2%.
The remaining activity was 27.2% (Calcium/calmodulin-dependent protein kinase kinase 1 (CAMKK1, Homo sapiens, UniProt Q8N5S9)).
The remaining activity was 25.8% (Muscle, skeletal receptor tyrosine-protein kinase (MUSK, Homo sapiens, UniProt O15146)).
Dual specificity protein kinase CLK2 (CLK2, Homo sapiens, UniProt P49760) — remaining activity: 52.1%.
It gave 85.4% for remaining activity (Serine/threonine-protein kinase PAK 6 (PAK6, Homo sapiens, UniProt Q9NQU5)).
The remaining activity was 43.1% (Dual specificity protein kinase CLK1 (CLK1, Homo sapiens, UniProt P49759)).
For Serine/threonine-protein kinase PAK 1 (PAK1, Homo sapiens, UniProt Q13153): remaining activity read 23.6%.
Tyrosine-protein kinase receptor TYRO3 (TYRO3, Homo sapiens, UniProt Q06418) — remaining activity: 55.3%.
For Mitogen-activated protein kinase kinase kinase 20 (MAP3K20, Homo sapiens, UniProt Q9NYL2): remaining activity read 89.7%.
Vascular endothelial growth factor receptor 1 (FLT1, Homo sapiens, UniProt P17948) — remaining activity: 13.3%.
It gave 142% for remaining activity (Tyrosine-protein kinase Tec (TEC, Homo sapiens, UniProt P42680)).
It gave 47.3% for remaining activity (Casein kinase I isoform epsilon (CSNK1E, Homo sapiens, UniProt P49674)).
The remaining activity was 43.2% (Protein kinase C theta type (PRKCQ, Homo sapiens, UniProt Q04759)).
Protein kinase C zeta type (PRKCZ, Homo sapiens, UniProt Q05513) — remaining activity: 87.4%.
Insulin-like growth factor 1 receptor (IGF1R, Homo sapiens, UniProt P08069) — remaining activity: 63.8%.
The remaining activity was 69.7% (Calcium/calmodulin-dependent protein kinase type 1 (CAMK1, Homo sapiens, UniProt Q14012)).
It gave 63.9% for remaining activity (Ephrin type-A receptor 6 (EPHA6, Homo sapiens, UniProt Q9UF33)).
For Serine/threonine-protein kinase Sgk2 (SGK2, Homo sapiens, UniProt Q9HBY8): remaining activity read 18.6%.

Block 2
Cell line: HEK-293T
Effect on: pseudovirus infection
Method: FDA-approved drug library counter-screen
Organism: VSV pseudotyped with VSV-G
Tested at: 10 µM
Time: 16 h
Relative to: vehicle-treated
With CN(C)C(=O)Oc1ccc[n+](C)c1 the GFP-positive cells was 98.4%.
For CCOC(=O)[C@H](CCc1ccccc1)N[C@@H](C)C(=O)N1[C@H](C(=O)O)C[C@@H]2CCC[C@@H]21, the GFP-positive cells was 111%.
CO[C@H]1C(=O)[C@]2(C)[C@@H](OC)C[C@H]3OC[C@@]3(OC(C)=O)[C@H]2[C@H](OC(=O)c2ccccc2)[C@]2(O)C[C@H](OC(=O)[C@H](O)[C@@H](NC(=O)OC(C)(C)C)c3ccccc3)C(C)=C1C2(C)C gave a GFP-positive cells of 79%.
With Nc1ncn([C@H]2C[C@H](O)[C@@H](CO)O2)c(=O)n1 the GFP-positive cells was 71%.
With CC(=O)OCC[N+](C)(C)C the GFP-positive cells was 117%.
Nc1ccncc1 gave a GFP-positive cells of 101%.
With Cc1cc(/C=C/C#N)cc(C)c1Nc1ccnc(Nc2ccc(C#N)cc2)n1 the GFP-positive cells was -0.23%.
CN(Cc1cnc2nc(N)nc(N)c2n1)c1ccc(C(=O)N[C@@H](CCC(=O)O)C(=O)O)cc1 gave a GFP-positive cells of 16.5%.
For CO[C@H]1/C=C/O[C@@]2(C)Oc3c(C)c(O)c4c(O)c(c(/C=N/N5CCN(C)CC5)c(O)c4c3C2=O)NC(=O)/C(C)=C\C=C\[C@H](C)[C@H](O)[C@@H](C)[C@@H](O)[C@@H](C)[C@H](OC(C)=O)[C@@H]1C, the GFP-positive cells was 108%.
O=c1[nH]c(=O)n([C@H]2C[C@H](O)[C@@H](CO)O2)cc1C(F)(F)F has a GFP-positive cells of 89.6%.
For CCOC(=O)[C@H](CCc1ccccc1)N[C@@H](C)C(=O)N1CCC[C@H]1C(=O)O, the GFP-positive cells was 107%.
COc1ccc(C(=O)CC(=O)c2ccc(C(C)(C)C)cc2)cc1 gave a GFP-positive cells of 113%.
With O=C(OOC(=O)c1ccccc1)c1ccccc1 the GFP-positive cells was 87%.
With COc1ccc(-n2nc(C(N)=O)c3c2C(=O)N(c2ccc(N4CCCCC4=O)cc2)CC3)cc1 the GFP-positive cells was 98.9%.
CCCCN1CCCCC1C(=O)Nc1c(C)cccc1C (stereo not shown) gave a GFP-positive cells of 122%.
The GFP-positive cells of C[C@H](Cn1cnc2c(N)ncnc21)OCP(=O)(O)O is reported as 119%.
The GFP-positive cells of Nc1nc(=O)c2nc(CNc3ccc(C(=O)N[C@@H](CCC(=O)O)C(=O)O)cc3)cnc2[nH]1 is reported as 116%.
For Cc1nnc(SCC2=C(C(=O)O)N3C(=O)[C@@H](NC(=O)Cn4cnnn4)[C@H]3SC2)s1, the GFP-positive cells was 91.5%.
For C[C@@](Cc1ccc(O)c(O)c1)(NN)C(=O)O, the GFP-positive cells was 101%.
For Cn1cc[nH]c1=S, the GFP-positive cells was 88.2%.
For Nc1ccc(/N=N/c2ccccc2)c(N)n1, the GFP-positive cells was 106%.
With O=C1CN2Cc3c(ccc(Cl)c3Cl)N=C2N1 the GFP-positive cells was 101%.
For CCn1nc(C(=O)O)c(=O)c2cc3c(cc21)OCO3, the GFP-positive cells was 88.2%.
The GFP-positive cells of CCCCCCCCCCCCCCCCOP(=O)([O-])OCC[N+](C)(C)C is reported as 110%.
CCCCN(CCCC)CC(O)c1cc(Cl)cc2c1-c1ccc(Cl)cc1/C2=C/c1ccc(Cl)cc1 (stereo not shown) gave a GFP-positive cells of 115%.

Mixed results
For Cn1cc(Cl)c2c(Oc3c(F)cc(Nc4cc(Cl)nc(N)n4)cc3F)ccnc21, the remaining binding was 100% (Serine/threonine-protein kinase PknB (pknB, Mycobacterium tuberculosis, UniProt P9WI81); cell-free assay, competition with immobilised ligand; 0.1 µM).
CN(N=O)C(=O)N[C@@H]1[C@@H](O)[C@H](O)[C@@H](CO)O[C@@H]1O has a body weight of 36.2 g and 32 g and 33.5 g and 27 g (mice, STZ diabetic neuropathy; dose not given, 28 days after STZ).
CN(c1ccnc(CNc2nc(Nc3ccc4c(c3)CC(=O)N4)ncc2C(F)(F)F)n1)S(C)(=O)=O has a remaining binding of 75% (Cyclin-dependent kinase 2 homolog (CRK2, Plasmodium falciparum, UniProt P61075); cell-free assay, competition with immobilised ligand; 1 µM).

A few entries again (block 1):
The remaining activity was 2.35% (Ribosomal protein S6 kinase alpha-3 (RPS6KA3, Homo sapiens, UniProt P51812)).
For Serine/threonine-protein kinase SIK2 (SIK2, Homo sapiens, UniProt Q9H0K1): remaining activity read 33.9%.
For Tyrosine-protein kinase JAK1 (JAK1, Homo sapiens, UniProt P23458): remaining activity read 22.2%.
